Measurements pooled from the literature.
Compare with care: the assays were run in different laboratories. In brackets after ≈: the same amount, converted by molar mass.
4'-phosphopantetheinyl transferase PptT: 4'-phosphopantetheinyl transferase PptT (Mycobacterium tuberculosis, UniProt O33336)
UniProt O33336, sequence (whole entry, looked up): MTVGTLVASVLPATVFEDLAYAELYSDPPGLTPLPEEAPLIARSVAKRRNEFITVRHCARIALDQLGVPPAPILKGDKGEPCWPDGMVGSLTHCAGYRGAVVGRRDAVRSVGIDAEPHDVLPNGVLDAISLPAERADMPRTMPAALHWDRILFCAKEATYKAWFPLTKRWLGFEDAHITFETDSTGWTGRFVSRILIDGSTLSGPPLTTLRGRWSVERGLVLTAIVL
UniProt Q13555, sequence (whole entry, looked up): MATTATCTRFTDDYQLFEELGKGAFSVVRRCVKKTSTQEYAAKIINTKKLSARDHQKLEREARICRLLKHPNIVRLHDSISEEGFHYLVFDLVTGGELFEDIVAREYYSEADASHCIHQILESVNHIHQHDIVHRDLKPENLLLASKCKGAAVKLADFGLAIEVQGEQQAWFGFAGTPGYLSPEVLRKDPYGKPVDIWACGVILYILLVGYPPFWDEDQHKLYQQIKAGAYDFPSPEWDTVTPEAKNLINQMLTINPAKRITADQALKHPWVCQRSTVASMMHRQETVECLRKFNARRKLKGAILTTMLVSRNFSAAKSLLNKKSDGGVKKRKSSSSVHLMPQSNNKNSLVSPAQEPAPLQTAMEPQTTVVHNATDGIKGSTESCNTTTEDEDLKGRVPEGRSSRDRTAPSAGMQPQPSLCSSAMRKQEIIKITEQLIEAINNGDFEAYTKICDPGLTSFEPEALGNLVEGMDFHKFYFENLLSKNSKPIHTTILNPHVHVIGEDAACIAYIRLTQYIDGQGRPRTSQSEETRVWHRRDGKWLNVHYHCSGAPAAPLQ
UniProt P33261, sequence (whole entry, looked up): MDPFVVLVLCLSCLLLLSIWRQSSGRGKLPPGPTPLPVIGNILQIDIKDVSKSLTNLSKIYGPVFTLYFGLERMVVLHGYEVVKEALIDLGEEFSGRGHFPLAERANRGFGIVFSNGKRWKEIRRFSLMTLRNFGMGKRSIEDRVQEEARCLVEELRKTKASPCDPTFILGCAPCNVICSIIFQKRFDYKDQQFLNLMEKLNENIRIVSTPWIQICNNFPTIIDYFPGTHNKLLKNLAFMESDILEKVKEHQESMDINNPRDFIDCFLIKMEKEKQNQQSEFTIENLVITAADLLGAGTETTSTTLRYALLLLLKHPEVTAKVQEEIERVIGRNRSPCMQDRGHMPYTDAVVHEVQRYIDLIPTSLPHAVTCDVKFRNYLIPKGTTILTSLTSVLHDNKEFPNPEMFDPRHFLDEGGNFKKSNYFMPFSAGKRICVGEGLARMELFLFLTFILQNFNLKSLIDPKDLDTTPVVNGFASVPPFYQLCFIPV
UniProt P42336, sequence (whole entry, unmodified, looked up): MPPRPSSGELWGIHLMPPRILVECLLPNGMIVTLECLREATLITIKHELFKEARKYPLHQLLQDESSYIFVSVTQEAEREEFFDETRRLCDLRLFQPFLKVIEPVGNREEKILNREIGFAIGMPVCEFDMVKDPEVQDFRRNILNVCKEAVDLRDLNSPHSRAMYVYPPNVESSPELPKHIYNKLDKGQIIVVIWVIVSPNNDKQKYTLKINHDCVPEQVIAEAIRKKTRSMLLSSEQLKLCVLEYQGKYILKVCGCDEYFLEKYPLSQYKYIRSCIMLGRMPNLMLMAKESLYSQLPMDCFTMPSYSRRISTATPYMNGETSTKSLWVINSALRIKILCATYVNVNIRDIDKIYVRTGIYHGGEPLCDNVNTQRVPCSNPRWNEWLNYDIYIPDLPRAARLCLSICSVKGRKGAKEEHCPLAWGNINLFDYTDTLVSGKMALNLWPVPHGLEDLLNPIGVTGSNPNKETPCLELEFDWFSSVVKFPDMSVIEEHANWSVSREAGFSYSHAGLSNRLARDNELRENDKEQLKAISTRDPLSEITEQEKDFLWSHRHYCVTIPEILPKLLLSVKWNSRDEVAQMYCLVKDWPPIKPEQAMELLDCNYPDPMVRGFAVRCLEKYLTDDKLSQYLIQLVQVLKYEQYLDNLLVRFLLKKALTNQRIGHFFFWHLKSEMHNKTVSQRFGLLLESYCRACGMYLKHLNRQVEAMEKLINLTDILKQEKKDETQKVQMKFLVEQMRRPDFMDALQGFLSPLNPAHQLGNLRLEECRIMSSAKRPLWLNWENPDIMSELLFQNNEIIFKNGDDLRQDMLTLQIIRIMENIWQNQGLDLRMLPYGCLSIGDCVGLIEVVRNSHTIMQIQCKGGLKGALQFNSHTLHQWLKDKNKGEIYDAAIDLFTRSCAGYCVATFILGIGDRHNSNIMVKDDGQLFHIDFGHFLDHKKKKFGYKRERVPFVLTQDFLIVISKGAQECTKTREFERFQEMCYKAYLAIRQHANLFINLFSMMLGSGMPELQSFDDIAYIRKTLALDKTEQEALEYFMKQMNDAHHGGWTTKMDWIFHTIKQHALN
UniProt Q9BRS2, sequence (whole entry, looked up): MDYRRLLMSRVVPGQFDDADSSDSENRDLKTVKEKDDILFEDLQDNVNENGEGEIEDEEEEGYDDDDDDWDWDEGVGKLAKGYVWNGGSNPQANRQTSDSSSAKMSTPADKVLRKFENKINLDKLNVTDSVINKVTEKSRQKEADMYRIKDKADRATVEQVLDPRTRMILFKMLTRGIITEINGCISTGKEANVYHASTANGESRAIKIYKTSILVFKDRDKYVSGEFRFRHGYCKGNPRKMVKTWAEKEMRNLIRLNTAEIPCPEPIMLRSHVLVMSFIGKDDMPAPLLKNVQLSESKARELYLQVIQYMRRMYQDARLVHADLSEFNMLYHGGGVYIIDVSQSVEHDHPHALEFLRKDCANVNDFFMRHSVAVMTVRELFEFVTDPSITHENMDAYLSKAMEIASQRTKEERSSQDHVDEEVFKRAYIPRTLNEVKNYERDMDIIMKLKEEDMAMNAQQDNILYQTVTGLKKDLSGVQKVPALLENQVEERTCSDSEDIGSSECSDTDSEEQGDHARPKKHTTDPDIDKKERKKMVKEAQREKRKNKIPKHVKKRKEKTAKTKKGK
UniProt Q6P3R8, sequence (whole entry, looked up): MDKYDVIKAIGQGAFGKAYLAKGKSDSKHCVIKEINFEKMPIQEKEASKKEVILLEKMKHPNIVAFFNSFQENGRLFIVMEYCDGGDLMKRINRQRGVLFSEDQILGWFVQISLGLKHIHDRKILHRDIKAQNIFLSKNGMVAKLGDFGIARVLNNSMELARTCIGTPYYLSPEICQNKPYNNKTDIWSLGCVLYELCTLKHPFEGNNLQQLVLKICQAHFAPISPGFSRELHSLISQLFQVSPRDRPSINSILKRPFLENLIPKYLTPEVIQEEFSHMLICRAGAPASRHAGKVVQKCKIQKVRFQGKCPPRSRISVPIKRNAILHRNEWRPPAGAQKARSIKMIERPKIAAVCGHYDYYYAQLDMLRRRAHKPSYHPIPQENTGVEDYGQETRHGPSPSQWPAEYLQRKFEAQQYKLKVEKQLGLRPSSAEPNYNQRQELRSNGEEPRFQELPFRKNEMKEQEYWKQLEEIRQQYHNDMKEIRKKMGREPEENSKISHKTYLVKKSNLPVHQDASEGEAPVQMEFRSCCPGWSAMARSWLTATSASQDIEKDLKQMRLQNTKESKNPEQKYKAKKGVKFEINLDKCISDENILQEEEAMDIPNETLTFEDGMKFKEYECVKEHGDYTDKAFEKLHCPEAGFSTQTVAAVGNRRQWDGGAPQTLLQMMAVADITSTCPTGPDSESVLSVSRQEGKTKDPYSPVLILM

SMILES	target or system	test	system	setting	endpoint	value
O=c1nc(NO)ccn1[C@@H]1O[C@H](CO)[C@@H](O)[C@H]1O	Huh-7	cell growth or viability			CC50	56.7 µM
CC(C)C[C@H](NC(=O)[C@@H](NC(=O)C1CCOCC1)C(C)C)C(=O)N[C@H](C=O)C[C@@H]1CCCNC1=O	A549	cell growth or viability, MTT		24 h	CC50	> 100 µM
CC[C@H]1CN2CCc3cc(OC)c(OC)cc3[C@@H]2C[C@@H]1C[C@H]1NCCc2cc(OC)c(OC)cc21	HepG2	cell growth or viability, ATP luminescence		72 h	CC50	1.92 µM
CCOC(=O)C1=C(CN2CCN(Cc3ccc(B(O)O)cc3)CC2)NC(c2nccs2)=NC1c1ccc(F)cc1Br (centres unmarked)	HepDES19	cell growth or viability, MTS		72 h	CC50	29.4 µM
CC(C)C[C@H](NC(=O)[C@@H](NC(=O)c1ccc(F)cc1)C(C)C)C(=O)N[C@H](C=O)C[C@@H]1CCCNC1=O	A549	cell growth or viability, MTT		24 h	CC50	> 100 µM
N.N.[Cl][Pt][Cl]	JVM13	cell growth or viability, ATP luminescence		72 h	IC50	0.58 µM
CCOC(=O)C1=C(CN2CCN(Cc3ccccc3B(O)O)CC2)NC(c2nccs2)=NC1c1ccc(F)cc1Br (centres unmarked)	HepDES19	cell growth or viability, MTS		72 h	CC50	> 50 µM
CC[C@H](C)[C@H]1C(=O)N[C@@H](Cc2ccc(O)cc2)C(=O)N2CCC[C@H]2C(=O)N[C@H]([C@H](C)O)C(=O)N[C@@H](CC(C)C)C(=O)N[C@@H](C(C)C)C(=O)N[C@@H](C)C(=O)N[C@@H](C)C(=O)N[C@@H](CO)C(=O)N[C@@H](CCC(=O)O)C(=O)N[C@H](CC(=O)O)C(=O)N[C@H](C(=O)O)CSSC[C@H](N)C(=O)N1C			aqueous buffer	18 h, pH 7.4	solubility	676 µM (≈ 944 µg/mL)
O=c1c2cc(Cl)c(CO)cc2[nH]c(=S)n1Cc1cncnc1	4'-phosphopantetheinyl transferase PptT	enzyme activity, inhibitor, FP			IC50	2.05 µM
C#Cc1cccc(Nc2ncnc3cc(OCCOC)c(OCCOC)cc23)c1	Calu-3	cell growth or viability, resazurin			CC50	> 60 µM
C=C(C)[C@]12C[C@@H](C)[C@@]34O[C@](CCCCCCCCCCC)(O[C@@H]1[C@@H]3[C@@H]1O[C@]1(CO)[C@@H](O)[C@]1(O)C(=O)C(C)=C[C@H]14)O2	MT4	cell growth or viability			CC50	5.17 µM
COc1ccc2cc1Oc1ccc(cc1)C[C@H]1c3cc(c(OC)cc3CCN1C)Oc1c(OC)c(OC)cc3c1[C@H](C2)N(C)CC3	MDCK	cell growth or viability, CCK-8		48 h	CC50	66.8 µM
CCOC(=O)C1=C(CN2CCC[C@@H]2C(=O)Nc2cccc(B(O)O)c2)NC(c2nccs2)=N[C@H]1c1ccc(F)cc1Br	HepDES19	cell growth or viability, MTS		72 h	CC50	29.8 µM
C[N+]1=C2C=C(NCCc3ccc(O)cc3)C(=O)c3[nH]cc(c32)CC1	HepG2	cell growth or viability, MTT		72 h	CC50	0.2 µM
COc1ncccc1-c1cnn2ccc(N3CCN(C(=O)OC(C)C)CC3)nc12	CAMK2G (Homo sapiens, UniProt Q13555)	binding, competition with immobilised ligand		1 µM	remaining binding	83%
NC(=O)c1cncc(Cn2c(=S)[nH]c3cc(CO)c(Cl)cc3c2=O)c1	4'-phosphopantetheinyl transferase PptT	enzyme activity, inhibitor, FP			IC50	0.238 µM

SMILES	target or system	test	system	setting	endpoint	value
CC(C)C[C@H](NC(=O)[C@@H](NC(=O)c1ccco1)C(C)C)C(=O)N[C@H](C=O)C[C@@H]1CCCNC1=O	A549	cell growth or viability, MTT		24 h	CC50	> 100 µM
CCOC(=O)C1=C(CN2CCC(C(=O)Nc3cccc(B4OC(C)(C)C(C)(C)O4)c3)C2)NC(c2nccs2)=NC1c1ccc(F)cc1Br (centres unmarked)	HepDES19	cell growth or viability, MTS		72 h	CC50	33.3 µM
CC(C)C[C@H](NC(=O)[C@@H](NC(=O)c1ccc(-c2ccccc2)cc1)C(C)C)C(=O)N[C@H](C=O)C[C@@H]1CCCNC1=O	A549	cell growth or viability, MTT		24 h	CC50	> 100 µM
[2H]c1c([2H])c([C@]2([2H])CCCN2C(=O)C(C)(C)Oc2ccc3cn[nH]c3c2)c([2H])c([2H])c1C([2H])([2H])[2H]	RIOK1 (Homo sapiens, UniProt Q9BRS2)	binding, competition with immobilised ligand		1 µM	remaining binding	78%
CC(C)C[C@H](NC(=O)[C@@H](NC(=O)c1ccncc1)C(C)C)C(=O)N[C@H](C=O)C[C@@H]1CCCNC1=O	A549	cell growth or viability, MTT		24 h	CC50	> 100 µM
CCOC(=O)C1=C(CN2CCN(Cc3cccc(B4OC(C)(C)C(C)(C)O4)c3)CC2)NC(c2nccs2)=NC1c1ccc(F)cc1Br (centres unmarked)	HepDES19	cell growth or viability, MTS		72 h	CC50	23.5 µM
CCC[C@@](N)(CO)CCc1ccc(OCCCCCC(C)C)cc1	CYP2C19 (Homo sapiens, UniProt P33261)	enzyme activity, inhibitor			IC50	> 50 µM
COc1ccc2cc1Oc1ccc(cc1)C[C@H]1c3cc(c(OC)cc3CCN1C)Oc1c(O)c(OC)cc3c1[C@H](C2)N(C)CC3	A549	cell growth or viability, CCK-8		48 h	CC50	46.8 µM
O=C[C@H](C[C@@H]1CCCNC1=O)NC(=O)[C@H](CC1CC1)NC(=O)/C=C/c1ccccc1	A549	cell growth or viability, MTT		24 h	CC50	> 100 µM
CCC(CC)COC(=O)[C@H](C)N[P@](=O)(OC[C@H]1O[C@@](C#N)(c2ccc3c(N)ncnn23)[C@H](O)[C@@H]1O)Oc1ccccc1	Calu-3	cell growth or viability			CC50	> 100 µM
C#CC[C@H](NC(=O)/C=C/c1ccccc1)C(=O)N[C@H](C=O)C[C@@H]1CCCNC1=O	A549	cell growth or viability, MTT		24 h	CC50	> 100 µM
Nc1ncc(-c2nc(N3CCOCC3)nc(N3CCOCC3)n2)c(C(F)F)n1	NEK5 (Homo sapiens, UniProt Q6P3R8)	binding, competition with immobilised ligand		10 µM	remaining binding	92%
CCOC(=O)C1=C(CN2CCC(C(=O)Nc3ccccc3B(O)O)C2)NC(c2nccs2)=NC1c1ccc(F)cc1Br (centres unmarked)	HepDES19	cell growth or viability, MTS		72 h	CC50	> 50 µM
Cc1nn(C)cc1-c1nc2c(N3CCN(Cc4ccc(Cl)cc4)CC3)c(Cl)cnc2[nH]1	PIK3CA (Homo sapiens, UniProt P42336, H1047Y)	binding, competition with immobilised ligand		1 µM	remaining binding	100%
CCOC(=O)C1=C(CN2CCN(Cc3cccc(B(O)O)c3)CC2)NC(c2nccs2)=NC1c1ccc(F)cc1Br (centres unmarked)	HepDES19	cell growth or viability, MTS		72 h	CC50	30.8 µM
COc1ccc2cc1Oc1ccc(cc1)C[C@H]1c3c(cc4c(c3Oc3cc5c(cc3OC)CCN(C)[C@@H]5C2)OCO4)CCN1C	A549	cell growth or viability, CCK-8		48 h	CC50	49.6 µM
